Published values pooled from the literature.
A part holds a random share of what one study measured. Substitutions count along the parent as printed.

Sample 1 — target: NFE2, bZIP domain (human); method: DHFR protein complementation; medium: yeast; relative to: wild-type JUN-FOS pair; reading: higher = stronger binding; measurement: binding fitness
Notes: single substitutions, most at no-binding floor
Starting sequence: JUN, bZIP domain (human); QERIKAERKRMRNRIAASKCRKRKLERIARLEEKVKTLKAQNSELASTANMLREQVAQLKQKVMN; partner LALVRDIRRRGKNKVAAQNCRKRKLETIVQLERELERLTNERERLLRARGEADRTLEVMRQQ
L38F: -1.39 natural log
E32A: -1.37 natural log
Q41S: -1.57 natural log
L45C: -1.5 natural log
E32H: -1.48 natural log
S47K: -1.49 natural log
E54S: -1.26 natural log
E32G: -1.45 natural log
E44K: -1.51 natural log
A46Q: -1.1 natural log
E44V: -1.45 natural log
E54L: -1.43 natural log
R30W: -1.27 natural log
L38Q: -1.51 natural log
Q41N: -1.49 natural log
V56P: -1.52 natural log
Q55H: -1.54 natural log
A29T: -1.45 natural log
T37E: -1.45 natural log
L52G: -1.5 natural log

Sample 2 — method: RNA Bind-n-Seq; molecule type: RNA; medium: in vitro; tested at: 365 nM; relative to: no-protein control; reading: higher = stronger binding; measurement: RBNS enrichment (R)
Target: RNA binding protein fox-1 homolog 2, RRM domain, GST-SBP tag (RBFOX2, Homo sapiens, UniProt O43251-10, residues 100-194)
Notes: natural RNA segment, single round, ends assumed
Constant ends, left off below: GGGAGUUCUACAGUCCGACGAUC … UGGAAUUCUCGGGUGCCAA
Construct (chain): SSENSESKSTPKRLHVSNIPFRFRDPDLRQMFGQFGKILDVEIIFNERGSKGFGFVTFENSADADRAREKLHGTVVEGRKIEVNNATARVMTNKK
AGUAGUGAAGGGACUGUGUUGCUUGUGAAGCGGUGUAGUAGCAUUUUUGCAGAUUCUUGGCUGGGUUUAGUGUACUGAUCUAGAAAAGCUGUUUUUCUGCUCCUUUGUGG: 0.827
ACCGCGGGGCGGGGAGCGUGUGGCUGUGCCCCUUCUCUUUAAUCUCAUUUAAUUUUUAUUAAACAUGCUCAGUACCUGUGUUGAGAAAAGGCUUUCUUUAUCCUAAAGAU: 0.539
GAGGUGCUCUUCAAAUCUCCCUUAGGGGCUGCAUACCUCCCCAGGUAAUCAAGCACGGAUCUUCUCAGCCAAGCCCAUUUCCUGCCCUGAGGUUUGGGAGUGGGAUAAGG: 0.301
ACUGUUCCUUAAUACUGGCAUAAUGCUUCCAGGAAGUUUUUCUUUUUUAUAUUUAAAAUGUUACUUUUCUGUAUGAUGUGCAUGCAAGUUUACCGUAACUUUUCUUAAAC: 2.61
AAGAAGGAAUUGGUUGUCAUCUGGCAGUGUUGCGCGUCACAAGAGAGCCUGUAUAUAAAUUAAAAUAGUCAAGACAACACUGACCUUGCACUUGUACAUAACUAUACAGU: 0.581
AGCACUUGUGCCUCAGCCCCUCACCUGGCCACCUGCCAGGGCACCUGCAACCCUAGCAAUACCAUGCUCGCUGGAGAGGCUCAGCUGCCUGCUUCUGGCCUGCCUGUGUC: 0.278
CAUAACCUAAGACUUUAAAAUAAGGCCACACCCAGAUUUGGGAAGGUAGAGGGGGAAAAAAAGUAGUGCCAUGGGGCCACGGGGCCCAGCUUAUUCCGUGUAGAUGCUUG: 8.07
AAGGUGAAGAAUGAAGGCGAAGAGGCAGACUCCUACCCCGACACCCUCCCUGCCUGUUCCUGCCUCCUGCACCCUCCCCAGCACCUGCCACACUGACUAUGUCUUUAGGA: 0.704
UGAGGCCGGCAGCCCUUGGGGCUGGGGAGAGCACAGCUUGCCUUGGACUUGCUUCUGAACACGAAUUCUUCGAGAACUAGGCUCAGAUGCUCUGCUGGAGUGUUGGCCUC: 0.411
UCCUUUGGGCCUGAGGACCUGCAGAAGACCCAGUGCAGCCAGAGAAUGCCCACUGCCUGUAACAGCCACCUGGAGAACUUCAUAAAGAUGUCUCACAGCCCUGGGGACAC: 1.46
AAGAGUCUAACUCCCUCCUCCCUAGGGAUUCCUACCCCACAAAGGUCUCAUGGACCAUAGAACUCACAGUACCUGGAUCUGCCCAGCAUGCCCUUUGGACCCAGUUCCCA: 5.62
GUGUACCAUCUCUGCCUCCUCUCCUUUGUACCCUGCCUUCUGGCUGUAUGGCUUACAUCCUGGAAAUUACCUGAUAAUAAAGCAAGUAAAGGUGUAAGGUUUCCUAAGGG: 0.442

Sample 3 — method: DHFR PCA, deep sequencing; medium: yeast; added: (+)-ABA 17 µM; relative to: wild-type fitted maximum; reading: higher = stronger binding; measurement: relative binding score
Target: ABI1, truncated, D143A, DHFR fusion (Arabidopsis thaliana)
Notes: methotrexate growth selection, single substitutions
Starting sequence: PYL1, truncated, DHFR fusion (Arabidopsis thaliana); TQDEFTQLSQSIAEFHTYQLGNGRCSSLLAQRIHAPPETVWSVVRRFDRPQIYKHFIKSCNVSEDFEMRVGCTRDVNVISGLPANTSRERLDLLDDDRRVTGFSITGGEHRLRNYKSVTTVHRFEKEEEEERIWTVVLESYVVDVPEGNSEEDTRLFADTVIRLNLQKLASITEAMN
M176K: 81.8%
I162D: -3.76%
R46F: -14.5%
P83A: 61.1%
V121I: 76.1%
V78Q: 0.0208%
F56S: -0.405%
L82H: 11.8%
V43I: 90.9%
R111W: 5.1%
T160L: 80.7%
M176E: 79.9%
I133K: 95.3%
R24Q: 95.2%
Q31C: 27.7%
R46W: 9.06%

Sample 4 — method: protein-binding microarray; molecule type: double-stranded DNA, one strand shown; medium: in vitro; tested at: 940 nM top; notes: 60-bp whole probe; added: salmon DNA 0.4 mg/ml; relative to: random background probes; reading: higher = stronger binding; measurement: fitted relative affinity; constant ends, left off below: GCCTAGCAC … GTCTTGATTCGCTTGACGCTGCTG
Target: Interferon regulatory factor 5, full length, phosphomimetic (IRF5, Homo sapiens, UniProt Q13568-2, residues 1-514, S451D/S453D/S456D/S462D)
TCATATATCTGTGTTATACTGTGCTAG: 0.271 z-score
TTAGGTAGCGGTATCGGTTAGTGCTAG: 4.55 z-score
GACGGTGTCGACTATCGGGACGTGCTA: 0.257 z-score
TACTCTCCAGGGTTTCTCTTTGTGCTA: 1.39 z-score
TGGGTGACTCTTACTCATTAGTGCTAG: -0.0749 z-score
GACAGTTTCCTTCTCCTGACGTGCTAG: 2.9 z-score
TTTTTTTTTACTTCGGGTGAGTGCTAG: 1.1 z-score
TCATGCATCTATCTTAAACTGTGCTAG: 0.527 z-score
GACCATTTCGGGACTGGAGACGTGCTA: -0.126 z-score
TTAGAACTGGGGTATCGAGTAGTGCTA: 1.04 z-score
GACGGTATCGGGTTTCGGGAAGTGCTA: 5.87 z-score
TCATAGTTGTGTCTTGCACTGTGCTAG: -0.0773 z-score
TTAGGATTGGGTTTCGGTTAGTGCTAG: 8.11 z-score
GACGGTTTACTTTTCCTGACGTGCTAG: 0.518 z-score
GACGGTATCGACACTGGGGAAGTGCTA: 4.06 z-score
TTATGTATCGGGTTTCGGTTAGTGCTA: 7.25 z-score
GACGGTATCGGTCGCGGGACGTGCTAG: 8.23 z-score

Sample 5 — target: CCNE1, cyclin fold, Cln2 fusion (human); method: yeast growth competition, sequencing; medium: yeast; notes: strong parent motif; relative to: not given; reading: higher = stronger binding; measurement: normalised enrichment score
Starting sequence: CDKN1A docking peptide (human); SKACRRLFGPVDS; partner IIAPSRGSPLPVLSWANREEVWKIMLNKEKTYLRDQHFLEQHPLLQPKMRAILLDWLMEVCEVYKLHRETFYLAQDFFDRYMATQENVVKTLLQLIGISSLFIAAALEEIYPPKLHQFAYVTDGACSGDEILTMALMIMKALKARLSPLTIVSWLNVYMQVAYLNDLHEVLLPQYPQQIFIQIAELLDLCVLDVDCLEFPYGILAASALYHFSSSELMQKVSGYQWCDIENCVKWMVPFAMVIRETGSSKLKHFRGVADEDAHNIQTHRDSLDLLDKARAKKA
SKACRRLFGPVQS [D12Q]: 4.43
SKACRRLFAPVDS [G9A]: 6.06
SKACRRLFRPVDS [G9R]: 2.91
SKACRRRFGPVDS [L7R]: -0.0598
SKACRTLFGPVDS [R6T]: 2.82
SKACQRLFGPVDS [R5Q]: 0.338
SKACRRLFGWVDS [P10W]: 2.77
SKACRRLCGPVDS [F8C]: 0.302
SKACRRLFGPIDS [V11I]: 5.43
SKACHRLFGPVDS [R5H]: 0.403
SKACRRLFGPVES [D12E]: 5.29
SKAVRRLFGPVDS [C4V]: 5.74
SKACFRLFGPVDS [R5F]: 0.0695
SKACRRLKGPVDS [F8K]: 0.108
SKACRRLFWPVDS [G9W]: 5.32
SKRCRRLFGPVDS [A3R]: 0.1
SKACRNLFGPVDS [R6N]: 3.98
SKTCRRLFGPVDS [A3T]: 3.67
SKAERRLFGPVDS [C4E]: -0.0619
SKACDRLFGPVDS [R5D]: -0.432
SKACRRLFGEVDS [P10E]: 5.97

Sample 6 — method: protein binding microarray; molecule type: double-stranded DNA, one strand shown; medium: in vitro; tested at: not given; relative to: not given; reading: higher = stronger binding; measurement: E-score
Target: Histone acetyltransferase KAT6A, both winged helices, GST fusion (KAT6A, Homo sapiens, UniProt Q92794, residues 1-181)
Notes: 8-mer, flanks averaged, mean of 2 arrays, mostly near background
Target sequence (chain): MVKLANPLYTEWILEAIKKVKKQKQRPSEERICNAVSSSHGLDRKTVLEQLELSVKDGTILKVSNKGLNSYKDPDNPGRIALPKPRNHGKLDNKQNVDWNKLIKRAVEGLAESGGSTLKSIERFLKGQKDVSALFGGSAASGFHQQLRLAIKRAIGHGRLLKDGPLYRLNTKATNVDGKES
CCCACAAG: -0.0709
AAGCGTGC: 0.186
AAAACGGT: 0.0866
TAACGTGA: 0.0799
AAATTGTA: -0.0536
CAAGACTC: -0.0779
AACCACCC: -0.0786
GGTGCTAC: -0.0524
CGGTCTAC: 0.195
GTCTACTA: -0.2
ATCATTGC: -0.144
ACCACAGA: -0.164
CAGGGGGG: -0.249
CCGGAGAG: 0.0634
ATGCTGCG: 0.0524
ATACGAAA: -0.078
AGGCAACT: -0.11
CAAAAGTC: -0.0402
GAAACTAA: -0.0888
TCGCGGAA: 0.291
GCGCTGTA: 0.258
ACGAGCGG: 0.249
ACCGAGGT: 0.0154
AGGGGGCA: -0.193
GATAGAGA: -0.125
